Experimental data pooled from the literature.
Each line is one published result; not all experiments were run side by side. Numbers after ± are the reported error.
UniProt O60840, sequence (whole entry, looked up): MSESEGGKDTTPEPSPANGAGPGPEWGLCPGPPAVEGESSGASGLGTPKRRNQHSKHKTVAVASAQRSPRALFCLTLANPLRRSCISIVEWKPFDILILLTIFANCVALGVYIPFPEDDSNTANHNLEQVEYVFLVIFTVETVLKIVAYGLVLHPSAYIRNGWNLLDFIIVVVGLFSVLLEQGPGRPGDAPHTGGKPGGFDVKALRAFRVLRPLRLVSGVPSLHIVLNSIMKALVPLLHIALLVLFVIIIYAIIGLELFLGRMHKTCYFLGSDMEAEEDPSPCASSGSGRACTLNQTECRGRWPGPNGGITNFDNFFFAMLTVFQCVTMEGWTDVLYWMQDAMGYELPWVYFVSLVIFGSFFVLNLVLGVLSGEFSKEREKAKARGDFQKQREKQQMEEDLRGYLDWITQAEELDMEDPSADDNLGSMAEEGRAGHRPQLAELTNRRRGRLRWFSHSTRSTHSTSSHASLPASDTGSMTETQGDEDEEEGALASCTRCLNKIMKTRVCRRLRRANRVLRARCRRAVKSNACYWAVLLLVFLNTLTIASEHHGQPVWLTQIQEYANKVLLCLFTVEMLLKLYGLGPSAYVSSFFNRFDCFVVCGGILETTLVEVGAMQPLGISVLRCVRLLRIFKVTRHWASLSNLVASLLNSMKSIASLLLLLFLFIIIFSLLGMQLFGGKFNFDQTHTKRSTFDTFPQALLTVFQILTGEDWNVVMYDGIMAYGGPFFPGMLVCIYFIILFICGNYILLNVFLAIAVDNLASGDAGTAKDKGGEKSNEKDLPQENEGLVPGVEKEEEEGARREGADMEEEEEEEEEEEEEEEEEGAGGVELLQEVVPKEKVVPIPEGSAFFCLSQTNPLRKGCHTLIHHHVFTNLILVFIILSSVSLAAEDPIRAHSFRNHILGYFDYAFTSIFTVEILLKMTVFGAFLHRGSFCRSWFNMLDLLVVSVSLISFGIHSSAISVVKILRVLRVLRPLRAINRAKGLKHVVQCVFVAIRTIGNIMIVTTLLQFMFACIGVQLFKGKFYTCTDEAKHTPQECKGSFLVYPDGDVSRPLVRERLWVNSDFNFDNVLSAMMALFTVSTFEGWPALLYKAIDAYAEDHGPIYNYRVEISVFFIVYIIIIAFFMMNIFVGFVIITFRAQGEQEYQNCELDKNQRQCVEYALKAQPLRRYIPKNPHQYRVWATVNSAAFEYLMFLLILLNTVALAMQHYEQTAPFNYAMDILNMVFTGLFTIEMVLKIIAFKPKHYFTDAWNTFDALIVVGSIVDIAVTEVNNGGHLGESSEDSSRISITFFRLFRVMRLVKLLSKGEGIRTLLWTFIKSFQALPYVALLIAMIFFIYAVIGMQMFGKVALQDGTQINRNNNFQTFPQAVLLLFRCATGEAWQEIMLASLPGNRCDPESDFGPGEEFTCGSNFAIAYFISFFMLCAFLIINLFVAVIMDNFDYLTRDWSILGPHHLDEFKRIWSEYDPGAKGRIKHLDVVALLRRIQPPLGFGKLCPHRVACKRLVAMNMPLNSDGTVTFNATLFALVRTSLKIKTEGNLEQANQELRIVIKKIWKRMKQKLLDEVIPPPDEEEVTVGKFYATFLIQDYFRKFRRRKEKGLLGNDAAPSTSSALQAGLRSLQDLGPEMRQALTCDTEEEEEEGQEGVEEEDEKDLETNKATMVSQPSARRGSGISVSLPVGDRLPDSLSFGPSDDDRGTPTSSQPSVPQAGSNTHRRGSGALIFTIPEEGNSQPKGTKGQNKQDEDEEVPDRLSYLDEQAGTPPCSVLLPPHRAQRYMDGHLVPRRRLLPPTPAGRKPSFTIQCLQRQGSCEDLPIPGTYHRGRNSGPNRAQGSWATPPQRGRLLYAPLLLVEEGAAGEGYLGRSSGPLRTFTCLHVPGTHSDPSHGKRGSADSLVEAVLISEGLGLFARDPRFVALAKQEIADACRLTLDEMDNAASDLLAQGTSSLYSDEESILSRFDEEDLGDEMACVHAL
UniProt Q04609, sequence (whole entry, looked up): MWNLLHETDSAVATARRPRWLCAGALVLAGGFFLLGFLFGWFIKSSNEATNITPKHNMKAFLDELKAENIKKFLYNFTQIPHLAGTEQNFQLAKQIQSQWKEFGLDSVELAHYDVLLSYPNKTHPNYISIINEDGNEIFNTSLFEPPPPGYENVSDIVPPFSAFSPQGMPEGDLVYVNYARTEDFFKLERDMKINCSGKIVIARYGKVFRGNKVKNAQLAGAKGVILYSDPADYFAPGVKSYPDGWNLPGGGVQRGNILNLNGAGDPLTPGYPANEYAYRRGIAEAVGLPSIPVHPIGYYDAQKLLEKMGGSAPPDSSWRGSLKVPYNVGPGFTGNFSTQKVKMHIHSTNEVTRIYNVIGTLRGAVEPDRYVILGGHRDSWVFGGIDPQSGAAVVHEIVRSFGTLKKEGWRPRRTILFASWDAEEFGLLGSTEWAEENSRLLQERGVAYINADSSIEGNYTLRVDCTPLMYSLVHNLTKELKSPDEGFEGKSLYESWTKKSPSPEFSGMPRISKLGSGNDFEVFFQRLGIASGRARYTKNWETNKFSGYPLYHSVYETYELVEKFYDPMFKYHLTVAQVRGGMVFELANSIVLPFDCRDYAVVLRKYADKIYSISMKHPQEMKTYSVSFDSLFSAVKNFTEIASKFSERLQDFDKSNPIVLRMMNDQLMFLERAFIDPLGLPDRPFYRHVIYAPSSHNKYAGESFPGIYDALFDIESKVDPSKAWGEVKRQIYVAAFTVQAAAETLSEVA
UniProt P08631, sequence (whole entry, looked up): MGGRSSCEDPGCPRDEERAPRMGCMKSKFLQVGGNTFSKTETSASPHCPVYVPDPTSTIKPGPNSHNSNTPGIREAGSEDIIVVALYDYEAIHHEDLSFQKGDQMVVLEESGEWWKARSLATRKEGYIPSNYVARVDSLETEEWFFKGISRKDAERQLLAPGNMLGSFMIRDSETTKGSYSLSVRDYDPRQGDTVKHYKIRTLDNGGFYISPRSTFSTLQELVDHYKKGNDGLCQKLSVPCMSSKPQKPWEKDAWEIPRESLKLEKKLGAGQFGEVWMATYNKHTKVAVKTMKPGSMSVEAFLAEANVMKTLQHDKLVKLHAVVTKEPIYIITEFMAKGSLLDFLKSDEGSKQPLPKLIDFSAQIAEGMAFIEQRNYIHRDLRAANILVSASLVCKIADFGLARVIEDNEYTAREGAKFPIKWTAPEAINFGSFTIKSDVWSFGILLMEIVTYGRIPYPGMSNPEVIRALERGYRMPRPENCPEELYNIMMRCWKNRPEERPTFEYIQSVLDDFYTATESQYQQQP
UniProt Q9HC35, sequence (whole entry, looked up): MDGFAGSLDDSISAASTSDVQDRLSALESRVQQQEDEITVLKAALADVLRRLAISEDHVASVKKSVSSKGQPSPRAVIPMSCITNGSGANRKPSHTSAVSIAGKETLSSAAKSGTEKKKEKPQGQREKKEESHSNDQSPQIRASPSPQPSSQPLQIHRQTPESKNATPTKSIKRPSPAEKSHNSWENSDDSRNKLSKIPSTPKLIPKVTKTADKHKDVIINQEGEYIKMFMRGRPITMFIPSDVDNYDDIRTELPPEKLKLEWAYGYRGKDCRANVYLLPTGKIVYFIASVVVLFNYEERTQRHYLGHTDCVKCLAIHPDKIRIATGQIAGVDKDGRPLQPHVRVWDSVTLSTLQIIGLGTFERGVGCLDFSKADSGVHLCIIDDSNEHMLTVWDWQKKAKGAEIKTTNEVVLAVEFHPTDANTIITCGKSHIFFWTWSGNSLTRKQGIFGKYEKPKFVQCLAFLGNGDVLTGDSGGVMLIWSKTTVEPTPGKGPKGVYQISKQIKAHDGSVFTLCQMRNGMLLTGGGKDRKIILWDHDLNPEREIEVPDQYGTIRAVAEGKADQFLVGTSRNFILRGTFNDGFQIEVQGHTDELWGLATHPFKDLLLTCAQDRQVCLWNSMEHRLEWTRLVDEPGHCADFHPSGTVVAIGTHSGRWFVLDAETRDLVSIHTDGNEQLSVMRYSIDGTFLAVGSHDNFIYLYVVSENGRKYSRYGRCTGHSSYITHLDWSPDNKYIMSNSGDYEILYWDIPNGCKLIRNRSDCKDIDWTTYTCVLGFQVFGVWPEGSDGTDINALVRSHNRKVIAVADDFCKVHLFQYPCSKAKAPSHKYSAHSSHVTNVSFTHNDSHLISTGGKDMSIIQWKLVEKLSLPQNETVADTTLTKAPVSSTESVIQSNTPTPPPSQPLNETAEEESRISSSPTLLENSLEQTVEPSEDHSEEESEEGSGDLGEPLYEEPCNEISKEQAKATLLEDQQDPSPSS
UniProt P50897, sequence (whole entry, unmodified, looked up): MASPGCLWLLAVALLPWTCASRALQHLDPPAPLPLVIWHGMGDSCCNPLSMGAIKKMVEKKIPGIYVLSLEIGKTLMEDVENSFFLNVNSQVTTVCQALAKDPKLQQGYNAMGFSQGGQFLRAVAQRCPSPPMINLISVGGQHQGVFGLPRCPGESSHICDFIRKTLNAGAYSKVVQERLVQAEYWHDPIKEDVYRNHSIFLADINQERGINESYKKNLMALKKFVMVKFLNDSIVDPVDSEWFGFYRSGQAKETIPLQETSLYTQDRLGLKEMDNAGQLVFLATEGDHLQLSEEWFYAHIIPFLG
UniProt P14618, sequence (whole entry, unmodified, looked up): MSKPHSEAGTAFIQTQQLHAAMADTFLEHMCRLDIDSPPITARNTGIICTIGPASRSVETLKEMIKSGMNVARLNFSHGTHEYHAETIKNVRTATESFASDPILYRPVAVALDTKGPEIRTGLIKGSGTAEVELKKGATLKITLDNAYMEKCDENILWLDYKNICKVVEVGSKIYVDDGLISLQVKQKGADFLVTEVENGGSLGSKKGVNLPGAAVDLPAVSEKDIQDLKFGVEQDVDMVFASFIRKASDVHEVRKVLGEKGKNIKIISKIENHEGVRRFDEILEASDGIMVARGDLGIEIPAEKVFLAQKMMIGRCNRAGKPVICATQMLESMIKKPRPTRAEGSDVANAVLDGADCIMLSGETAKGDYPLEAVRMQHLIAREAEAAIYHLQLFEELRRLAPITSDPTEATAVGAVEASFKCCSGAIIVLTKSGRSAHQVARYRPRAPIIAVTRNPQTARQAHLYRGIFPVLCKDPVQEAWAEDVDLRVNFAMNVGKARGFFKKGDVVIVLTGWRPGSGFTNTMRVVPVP

| Structure (SMILES) | target | test | test system | setting | scale | quantity | result |
| --- | --- | --- | --- | --- | --- | --- | --- |
| COc1cc(N2CCN(C(=O)C3CCCN3)CC2)ccc1Nc1ncc(Cl)c(Nc2ccccc2P(C)(C)=O)n1 (stereo not shown) | ALK tyrosine kinase receptor/Echinoderm microtubule-associated protein-like 4 (Homo sapiens, UniProt Q9HC35+Q9UM73) | refers to: ALK tyrosine kinase receptor/Echinoderm microtubule-associated protein-like 4 | nude mice, H3122 xenograft, tumour | oral, 25 mg/kg, 48 h | – | protein level | decreased |
| CC[C@H](C)[C@H](NC(=O)[C@H](C)NC(=O)[C@@H]1CC[C@@H](O)CNC(=O)C[C@H](NC(=O)[C@H](CCCNC(=N)N)NC(=O)[C@H](CCCNC(=N)N)NC(=O)[C@@H](NC(=O)[C@H](CCCNC(=N)N)NC(C)=O)[C@@H](C)CC)C(=O)N[C@@H](CCC(=O)O)C(=O)N[C@@H](Cc2ccc(O)cc2)C(=O)N[C@@H](CC(C)C)C(=O)N1)C(=O)N[C@@H](CCC(N)=O)C(N)=O | Disks large homolog 4, GK domain (Homo sapiens, UniProt P78352) | binding, isothermal titration calorimetry | – | GK domain | relative to: linear peptide | -TΔS difference | -4.5 kcal/mol |
| CC(C)CCC[C@@H](C)[C@H]1CC[C@H]2[C@@H]3CC=C4C[C@@H](OS(=O)(=O)O)CC[C@]4(C)[C@H]3CC[C@]12C | Prothrombin (F2, Homo sapiens, UniProt P00734) | enzyme activity, inhibitor | – | 0 (unit not given), pH 7.4, 37 °C, no Tween, together with: Spectrozyme TH | – | maximal inhibition | 83.3 ± 10.2% |
| CC(C)(C)CCN1C[C@@H]2[C@@H](CNC(=O)c3cc(Cl)cc(Cl)c3)[C@@H]2C1.Cl | Voltage-dependent L-type calcium channel subunit alpha-1F (Homo sapiens, UniProt O60840) | calcium current, whole-cell patch clamp | HEK-293T cells | 5 µM, holding potential -90 mV, together with: β2 and α2δ subunits | – | activation slope factor k | 8.36 ± 0.28 mV |
| CCCCCCCCCCCCCCCC(=O)NC[C@H](NC(=O)CNC(=O)CCNc1ccc([N+](=O)[O-])c2nonc12)C(=O)N[C@H](C(=O)N[C@@H](CCCCN)C(=O)N[C@H](C(=O)N[C@@H](CCCCN)C(=O)N[C@@H](CCCCN)C(=O)O)[C@@H](C)CC)C(C)C | Palmitoyl-protein thioesterase 1, T75P/R151X (Homo sapiens, UniProt P50897, T75P) | chaperone | patient lymphoblasts T75P/R151X | concentration not given | relative to: untreated | enzyme activity | 2 fold |
| Cc1cccc(Cn2ncc3c4cc(F)c(CN(C)C)cc4n(C)c3c2=O)n1 | Pyruvate kinase PKM (PKM, Homo sapiens, UniProt P14618) | ITC | – | pH 7.5, 25 °C | – | ΔS | 1.53 ± 7.03 J/(mol·K) |
| NC(=O)[C@@H]1CCCNC(=O)[C@H](Cc2ccc([N+](=O)[O-])cc2)NC(=O)[C@H](Cc2ccco2)NC(=O)[C@H](CC2CC2)NC(=O)/C=C/C(=O)N1 | SRC (Gallus gallus, UniProt P00523, C277Q) | enzyme activity, inhibitor | – | – | relative to: C277Q mutant over wild type | IC50 ratio | 13 fold |
| NS(=O)(=O)c1ccc(-n2nc(C(F)(F)F)cc2-c2ccc(F)cc2F)cc1 | Cyclooxygenase-2 (Canis lupus familiaris, UniProt Q8SPQ9) | PGE2 formation, inhibitor | dog whole blood | 24 h, together with: LPS | – | IC80 | 13.4 µM |
| COc1cc(C(=O)NC2CCC(N3CCN(CC4CCC5(CCCC5)C4)CC3)CC2)c(F)cc1Nc1ncc2c(n1)N(C1CCCC1(F)F)CC(F)(F)C(=O)N2C (stereo not shown) | HCK (Homo sapiens, UniProt P08631) | cell-free assay, TR-FRET | – | 10 µM | – | inhibition | 1.44% |
| Nc1ncnc2c1ncn2[C@@H]1O[C@H](CO)[C@@H](O[C@H]2O[C@H](CO)[C@@H](OP(=O)(O)O)[C@H](OP(=O)(O)O)[C@H]2O)[C@H]1O | Inositol 1,4,5-trisphosphate-gated calcium channel ITPR1, IP3-binding core (Itpr1, Rattus norvegicus, UniProt P29994, R568Q) | binding, 3H-IP3 competition | – | IP3-binding core IBC^R568Q | – | Hill coefficient | 1.1 ± 0.3 |
| CC(=O)N[C@@H](Cc1ccc(O)cc1)C(=O)N[C@H](C(=O)N[C@@H](C)C(=O)N[C@@H](CC(=O)O)C(=O)Nc1ccc2c(C)cc(=O)oc2c1)C(C)C | Caspase-1 (CASP1, Homo sapiens, UniProt P29466) | substrate cleavage, substrate, fluorogenic AMC release | – | enzyme 0.25 activity units/µL | – | Vmax | 258 ± 6.21 RFU/min |
| O=C([O-])CN1CCN(CC(=O)[O-])CCN(C(CCC(=O)NCCCCCN(CCCC[C@H](NC(=O)N[C@@H](CCC(=O)O)C(=O)O)C(=O)O)C(=O)c2ccc(I)cc2)C(=O)O)CCN(CC(=O)[O-])CC1.[68Ga+3] (stereo partly shown) | FOLH1 (Homo sapiens, UniProt Q04609) | PET/CT | prostate cancer patients, bone metastases | 60 min post-injection | – | SUVmax | 12 ± 10.9 |
| COc1cc(C2CC(=O)Nc3nc(N)[nH]c(=O)c32)ccc1O (stereo not shown) | uncharacterized protein (Leishmania donovani, UniProt A0A3Q8IA09) | ITC | – | – | – | ΔG | -8.01 kcal/mol |

A few entries again:
| Structure (SMILES) | target | test | test system | setting | scale | quantity | result |
| --- | --- | --- | --- | --- | --- | --- | --- |
| NC(=O)[C@@H]1CCCNC(=O)[C@H](Cc2ccc([N+](=O)[O-])cc2)NC(=O)[C@H](Cc2ccco2)NC(=O)[C@H](CC2CC2)NC(=O)/C=C/C(=O)N1 | SRC (Gallus gallus, UniProt P00523, C277Q) | enzyme activity, inhibitor | – | – | relative to: C277Q mutant over wild type | IC50 ratio | 13 fold |
| NS(=O)(=O)c1ccc(-n2nc(C(F)(F)F)cc2-c2ccc(F)cc2F)cc1 | Cyclooxygenase-2 (Canis lupus familiaris, UniProt Q8SPQ9) | PGE2 formation, inhibitor | dog whole blood | 24 h, together with: LPS | – | IC80 | 13.4 µM |
